# Assay results collected from several papers.
# Lines come from different studies, so protocols differ. “And” joins repeats or separate records; there may be more than shown. pEC50: −log10 of the molar value.
Compound,target or system,assay,test system,setting,how to read,endpoint,result
Nc1ccn([C@@H]2O[C@H](COP(=O)(O)OP(=O)(O)OP(=O)(O)O)[C@@H](O)[C@H]2O)c(=O)n1,,"binding, MIDAS equilibrium dialysis LC-MS",A2AR-BRIL thermostabilized,concentration not given,relative to: no-protein control,log2 fold change,-0.494
N#Cc1ccc2c(c1)[C@H]1CCCN(C(=O)c3ccc4[nH]cnc4c3)[C@H]1C2,,,"T2DM patients with overweight or obesity, plasma","oral, 20 mg, day 15 (360 h), multiple dosing, mean",,fasting plasma insulin,18.5 mU/L
O=C(O)CNC(=O)Cc1ccccc1,,,"ventricular cardiomyocytes, C57BL/6 mouse","dose not given, 0.592 s",,sarcomere length,1.66 µm
OC(CCN1CCCCC1)(c1ccccc1)C1CC2C=CC1C2 (stereo not drawn),,resting-state EEG,healthy elderly humans,"oral, 2 mg, eyes open, LS mean",relative to: baseline,"change, EEG Delta power, in Fz-Cz",20.3%
Cn1cc(-c2ccc(-c3cncc(Cl)c3N3CCC4(CCNC4=O)CC3)cc2)cn1,COLO 205,"gene expression, microarray, item: OAS2 mRNA",,"concentration not given, 6 h",relative to: untreated cells,log2 fold change,2.45
CSc1cc(Oc2ccnc3[nH]c(=O)cnc23)ccc1NC(=O)Nc1cc(C(C)(C)C)nn1-c1ccccc1,patient-derived cell line,"RPPA, item: phosphorylated Rb",human,"1 µM, 4 h",relative to: DMSO,phospho ratio,0.6
CCn1cc(-c2cc(Cn3ccnc3)cc3c2CCN([C@H](c2cc(OC)ccn2)C2CC2)C3=O)c(C(F)(F)F)n1,HEL 92.1.7,cell growth,,120 h,,pEC50,< 4.52
CC(=CC(=O)O)CC(=O)O,,"binding, MIDAS equilibrium dialysis LC-MS",A2AR-BRIL thermostabilized,concentration not given,relative to: no-protein control,log2 fold change,-0.0582
CC[S+]([O-])c1nc(-c2ccccc2)cc(C(F)(F)F)n1 (stereo not drawn),transportin-1/2,"FUS nuclear import, high content imaging",HeLa Kyoto reporter,"0.0158 µM, 2 h",,cells with nuclear reporter,95.9% and 92.7%
Nc1ncnc2c1ncn2[C@H]1C[C@H](O)[C@@H](COP(=O)(O)O)O1,,"binding, MIDAS equilibrium dialysis LC-MS",A2AR-BRIL thermostabilized,concentration not given,relative to: no-protein control,log2 fold change,-0.285
CCS(=O)(=O)c1nc(C2CC2)cc(C(F)(F)F)n1,transportin-1/2,"FUS nuclear import, high content imaging",HeLa Kyoto reporter,"5 µM, 2 h",,cells with nuclear reporter,94.7% and 94%
COc1cnc2cccc(N3CCc4c(cc(Cn5ccnc5C)cc4-c4cn(C)nc4C(F)(F)F)C3=O)c2c1,HT55,"cell growth, inhibitor",,120 h,,pEC50,6.94
O=C(O)[C@H](O)[C@@H](O)[C@H](O)[C@H](O)COP(=O)(O)O,,"binding, MIDAS equilibrium dialysis LC-MS",A2AR-BRIL thermostabilized,concentration not given,relative to: no-protein control,log2 fold change,-0.167
CCn1cc(-c2cc(Cn3ccoc3=N)cc3c2CCN([C@@H](C)c2cc(OC)ccn2)C3=O)c(C(F)(F)F)n1,HEL 92.1.7,cell growth,,120 h,,pEC50,7.88
CC(=O)CC(=O)CCC(=O)O,,"binding, MIDAS equilibrium dialysis LC-MS",A2AR-BRIL thermostabilized,concentration not given,relative to: no-protein control,log2 fold change,-0.571

# Excerpt of the above:
Compound,target or system,assay,test system,setting,how to read,endpoint,result
O=C(O)CNC(=O)Cc1ccccc1,,,"ventricular cardiomyocytes, C57BL/6 mouse","dose not given, 0.592 s",,sarcomere length,1.66 µm
